Results collected from several papers.
Compare with care: the assays were run in different laboratories. ± marks the error that the study gave.
Method: steady-state kinetics
B1: ERAP1 K528R (Homo sapiens, UniProt Q9NZ08); chain MVFLPLKWSLATMSFLLSSLLALLTVSTPSWCQSTEASPKRSDGTPFPWNKIRLPEYVIPVHYDLLIHANLTTLTFWGTTKVEITASQPTSTIILHSHHLQISRATLRKGAGERLSEEPLQVLEHPRQEQIALLAPEPLLVGLPYTVVIHYAGNLSETFHGFYKSTYRTKEGELRILASTQFEPTAARMAFPCFDEPAFKASFSIKIRREPRHLAISNMPLVKSVTVAEGLIEDHFDVTVKMSTYLVAFIISDFESVSKITKSGVKVSVYAVPDKINQADYALDAAVTLLEFYEDYFSIPYPLPKQDLAAIPDFQSGAMENWGLTTYRESALLFDAEKSSASSKLGITMTVAHELAHQWFGNLVTMEWWNDLWLNEGFAKFMEFVSVSVTHPELKVGDYFFGKCFDAMEVDALNSSHPVSTPVENPAQIREMFDDVSYDKGACILNMLREYLSADAFKSGIVQYLQKHSYKNTKNEDLWDSMASICPTDGVKGMDGFCSRSQHSSSSSHWHQEGVDVKTMMNTWTLQRGFPLITITVRGRNVHMKQEHYMKGSDGAPDTGYLWHVPLTFITSKSDMVHRFLLKTKTDVLILPEEVEWIKFNVGMNGYYIVHYEDDGWDSLTGLLKGTHTAVSSNDRASLINNAFQLVSIGKLSIEKALDLSLYLKHETEIMPVFQGLNELIPMYKLMEKRDMNEVETQFKAFLIRLLRDLIDKQTWTDEGSVSERMLRSQLLLLACVHNYQPCVQRAEGYFRKWKESNGNLSLPVDVTLAVFAVGAQSTEGWDFLYSKYQFSLSSTEKSQIEFALCRTQNKEKLQWLLDESFKGDKIKTQEFPQILTLIGRNPVGYPLAWQFLRKNWNKLVQKFELGSSSIAHMVMGTTNQFSTRTRLEEVKGFFSSLKENGSQLRCVQQTIETIEENIGWMDKNFDKIRVWLQSEKLEHDPEADATG
B2: YdjH (Escherichia coli, UniProt P77493); chain MDNLDVICIGAAIVDIPLQPVSKNIFDVDSYPLERIAMTTGGDAINEATIISRLGHRTALMSRIGKDAAGQFILDHCRKENIDIQSLKQDVSIDTSINVGLVTEDGERTFVTNRNGSLWKLNIDDVDFARFSQAKLLSLASIFNSPLLDGKALTEIFTQAKARQMIICADMIKPRLNETLDDICEALSYVDYLFPNFAEAKLLTGKETLDEIADCFLACGVKTVVIKTGKDGCFIKRGDMTMKVPAVAGITAIDTIGAGDNFASGFIAALLEGKNLRECARFANATAAISVLSVGATTGVKNRKLVEQLLEEYEG
B3: alanine racemase H127A/H166A/H200A (Geobacillus stearothermophilus, UniProt P10724); chain MNDFHRDTWAEVDLDAIYDNVENLRRLLPDDTHIMAVVKANAYGHGDVQVARTALEAGASRLAVAFLDEALALREKGIEAPILVLGASRPADAALAAQQRIALTVFRSDWLEEASALYSGPFPIHFALKMDTGMGRLGVKDEEETKRIVALIERHPHFVLEGLYTAFATADEVNTDYFSYQYTRFLHMLEWLPSRPPLVACANSAASLRFPDRTFNMVRFGIAMYGLAPSPGIKPLLPYPLKEAFSLHSRLVHVKKLQPGEKVSYGATYTAQTEEWIGTIPIGYADGWLRRLQHFHVLVDGQKAPIVGRICMDQCMIRLPGPLPVGTKVTLIGRQGDEVISIDDVARHLETINYEVPCTISYRVPRIFFRHKRIMEVRNAIGRGESSA
B4: protein (UniProt A0A4Y6I1D9); chain MTLDEKPRKFDGLDIEGVAFAASVTALGAAKPLALGGAGDRGLEINGNYIKFTAIGIYVEDGIIPHLSPKLRGKTVEELCEKELLFEEVISAPFEKLVRVVFLVPLTGIQYSEKVLERISVQSLFTDIKEEHKQQFLEIFKGESFPPRSSVILSFSKEGLKVAFAKGDDVPSKAVGTIEDATFADAVLATIIWKEGVSPAAKVSLAERLSKCL
B5: iodotyrosine deiodinase (Haliscomenobacter hydrossis, UniProt F4KU78); chain MKQKPAFIPYAGAQFEPEEMLSKSAEYYQFMDHRRTVREFSNRAIPLEVIENIVMTASTAPSGAHKQPWTFVVVSDPQIKAKIRQAAEKEEFESYNGRMSNEWLEDLQPFGTDWHKPFLEIAPYLIVVFRKAYDVLPDGTQRKNYYVQESVGIACGFLLAAIHQAGLVALTHTPSPMNFLQKILQRPENERPFLLVPVGYPAEGAMVPDLQRKDKAAVMVVY
B6: enzyme (Thermobifida fusca, UniProt Q47RA9); chain MIMIMASKSSPHDLPDVSGLSIAVLGGTGDQGRGLARRFAMAGHEVILGSRSAERAQAVAAELGEGLPVRGMDNAGAAEAGDVVIVAVPWDGHRALLESLKDVLAGKIVVDCVNPLGFDKRGAYALPVEEGSAAEQAAAILPDSRVVAAFHHVSAVLLLDPEVEKVDLDVLVLGDDREATDVVRALAARIPGVRGVYGGRLRNAHQVEAFTANLISINRRYKAHAGIRITDI
B7: tsaM1 (Comamonas testosteroni, UniProt P94679); chain MFIRNCWYVAAWDTEIPAEGLFHRTLLNEPVLLYRDTQGRVVALENRCCHRSAPLHIGRQEGDCVRCLYHGLKFNPSGACVEIPGQEQIPPKTCIKSYPVVERNRLVWIWMGDPARANPDDIVDYFWHDSPEWRMKPGYIHYQANYKLIVDNLLDFTHLAWVHPTTLGTDSAASLKPVIERDTTGTGKLTITRWYLNDDMSNLHKGVAKFEGKADRWQIYQWSPPALLRMDTGSAPTGTGAPEGRRVPEAVQFRHTSIQTPETETTSHYWFCQARNFDLDDEALTEKIYQGVVVAFEEDRTMIEAHEKILSQVPDRPMVPIAADAGLNQGRWLLDRLLKAENGGTAP
B8: GTPBP3 A162P (Homo sapiens, UniProt Q969Y2); chain TRRSSGAPAPGSGATIFALSSGQGRCGIAVIRTSGPASGHALRILTAPRDLPLARHASLRLLSDPRSGEPLDRALVLWFPGPQSFTGEDCVEFHVHGGPAVVSGVLQALGSVPGLRPAEAGEFTRRAFANGKLNLTEVEGLPDLIHAETEAQRRQALRQLDGELGHLCRGWAETLTKALAHVEAYIDFGEDDNLEEGVLEQADIEVRALQVALGAHLRDARRGQRLRSGVHVVVTGPPNAGKSSLVNLLSRKPVSIVSPEPGTTRDVLETPVDLAGFPVLLSDTAGLREGVGPVEQEGVRRARERLEQADLILAMLDASDLASPSSCNFLATVVASVGAQSPSDSSQRLLLVLNKSDLLSPEGPGPGPDLPPHLLLSCLTGEGLDGLLEALRKELAAVCGDPSTDPPLLTRARHQHHLQGCLDALGHYKQSKDLALAAEALRVARGHLTRLTGGGGTEEILDIIFQDFCVGK
B9: cyc1 F96W (Streptomyces coelicolor, UniProt Q9K499); chain MHAFPHGTTATPTAIAVPPSLRLPVIEAAFPRQLHPYWPKLQETTRTWLLEKRLMPADKVEEYADGLCYTDLMAGYYLGAPDEVLQAIADYSAWFWVWDDRHDRDIVHGRAGAWRRLRGLLHTALDSPGDHLHHEDTLVAGFADSVRRLYAFLPATWNARFARHFHTVIEAYDREFHNRTRGIVPGVEEYLELRRLTFAHWIWTDLLEPSSGCELPDAVRKHPAYRRAALLSQEFAAWYNDLCSLPKEIAGDEVHNLGISLITHHSLTLEEAIGEVRRRVEECITEFLAVERDALRFADELADGTVRGKELSGAVRANVGNMRNWFSSVYWFHHESGRYMVDSWDDRSTPPYVNNEAAGEK
B10: ycjS (Escherichia coli, UniProt P77503); chain MKSAMTSSPLRVAIIGAGQVADKVHASYYCTRNDLELVAVCDSRLSQAQALAEKYGNASVWDDPQAMLLAVKPDVVSVCSPNRFHYEHTLMALEAGCHVMCEKPPAMTPEQAREMCDTARKLGKVLAYDFHHRFALDTQQLREQVTNGVLGEIYVTTARALRRCGVPGWGVFTNKELQGGGPLIDIGIHMLDAAMYVLGFPAVKSVNAHSFQKIGTQKSCGQFGEWDPATYSVEDSLFGTIEFHNGGILWLETSFALNIREQSIMNVSFCGDKAGATLFPAHIYTDNNGELMTLMQREIADDNRHLRSMEAFINHVQGKPVMIADAEQGYIIQQLVAALYQSAETGTRVEL
B11: Cop6 (Coprinopsis cinerea, UniProt A8NCK5); chain MPAALPYNVSRDNKWDIKKIIQDFFKRCDVPYQVIPYDTELWNACLKRAKEKGYPVEPDSPMSLYRSFKVGVVITRTSYGHIQDYEILIWVATFTAFVTYADDAFQEDIQHLHSFARTFLQNEKHEHPVLEAFAQFLRESSIRFSHFVANTVVSSALRFMMSIALEFEGQNVSVSTEAREYPGYIRILSGLSDIYALFAFPMDLPRSTYIQAFPEQIDYINGTNDLLSFYKEELDCETVNFISAAATSQQVSKLEVLRNAAEKAAYSYDVVVNVLKPYPEALAAWKSFARGFCYFHTSSPRYRLGEMFHDFEHDLVCKCASCTEI
B12: enzyme (Triticum aestivum, UniProt A0A6J4BJH4); chain MPSTESAAGVAWDRRRELQAFDDTKAGVKGLVDAGVTALPPIFRHSPESLESITSSNHVAGAIPTVDLAAPRREDAVALVRHAARTVGFFQVVNHGVPAELMAGMLEGVRRFNEGPAEAKQAIYSRDQARKVRFASNFDLFSSAAANWRDTLFFHLAPDPAPSEELPEAVRDVVTEYGHAVTKVGLSVLELLSESLGLSSDHLRDMDCAENLNAVCQYYPPCPEPYLTWGTKRHTDPGFLTVLLQDGMGGLQVLVDGKTWVDVPPVPGAFIINIGDLLQLVSNDQFRSVEHRVLANKSKDTARVSVASFFNTNIERSTRLYGPITDGRNPPIYRSVTAREFIATFNRIGLDGRSLDQYRLDRDTPTPAVEGCE
Chain of UniProt G1UII1 (whole entry, looked up): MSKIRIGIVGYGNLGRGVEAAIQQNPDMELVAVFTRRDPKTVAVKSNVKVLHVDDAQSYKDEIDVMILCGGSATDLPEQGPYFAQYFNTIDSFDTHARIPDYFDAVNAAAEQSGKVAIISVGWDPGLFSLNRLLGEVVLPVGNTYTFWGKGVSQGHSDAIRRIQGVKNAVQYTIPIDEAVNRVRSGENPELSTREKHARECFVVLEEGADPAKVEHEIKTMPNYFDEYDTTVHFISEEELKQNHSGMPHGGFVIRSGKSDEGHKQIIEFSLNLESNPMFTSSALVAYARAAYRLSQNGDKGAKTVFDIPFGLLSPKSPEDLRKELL

Substance = B1 (ERAP1 K528R); substrate = CC(C)C[C@H](NC(=O)CNC(=O)[C@H](CCC(=O)O)NC(=O)[C@H](Cc1ccccc1)NC(=O)[C@H](CCCNC(=N)N)NC(=O)[C@H](CCCCN)NC(=O)[C@@H](N)Cc1ccc(O)cc1)C(=O)N[C@H](C(=O)N[C@@H](CCC(N)=O)C(=O)N[C@@H](CCCNC(=N)N)C(=O)O)[C@@H](C)O; conditions = 25 °C; kcat/Km = 5500 ± 18000 M⁻¹ s⁻¹
Substance = B2 (YdjH); substrate = O=C(CO)[C@@H](O)[C@H](O)[C@H](O)[C@@H](O)CO; conditions = pH 7.4, 30 °C, KCl 100 mM, added: ATP 2.0 mM, MgCl2 5.0 mM; kcat/Km = 24.4 ± 0.8 M⁻¹ s⁻¹
Substance = B3; substrate = C[C@@H](N)C(=O)O; conditions = pH 9, room temperature, added: NAD+ 10 mM; kcat/Km = 360 M⁻¹ s⁻¹
Substance = B4 (protein); substrate = O=C(/C=C/c1ccc(O)cc1)c1c(O)cc(O)cc1O; kcat/Km = 1.61e+06 M⁻¹ s⁻¹
Substance = B5 (iodotyrosine deiodinase); substrate = N[C@@H](Cc1cc(F)c(O)c(I)c1)C(=O)O; conditions = pH 7.4, 25 °C; kcat/Km = 7000 ± 3000 M⁻¹ s⁻¹
Substance = B6 (enzyme); substrate = NC(=O)c1ccc[n+](CCO)c1; conditions = pH 8, 25 °C; kcat/Km = 1.2 ± 0.15 M⁻¹ s⁻¹
Substance = B7 (tsaM1); substrate = COc1cc(C(=O)O)ccc1O; conditions = apparent, added: NADH 1 mM; kcat/Km = 230 ± 48 M⁻¹ s⁻¹
Substance = Ptb (Listeria monocytogenes, UniProt Q8Y7B7); substrate = CC(=O)SCCNC(=O)CCNC(=O)[C@H](O)C(C)(C)COP(=O)(O)OP(=O)(O)OC[C@H]1O[C@@H](n2cnc3c(N)ncnc32)[C@H](O)[C@@H]1OP(=O)(O)O; conditions = pH 7.5, 25 °C, apparent, poor fit; kcat/Km = 300000 M⁻¹ s⁻¹
Substance = B8 (GTPBP3 A162P); substrate = Nc1nc2c(ncn2[C@@H]2O[C@H](COP(=O)(O)OP(=O)(O)OP(=O)(O)O)[C@@H](O)[C@H]2O)c(=O)[nH]1; conditions = pH 8, 37 °C, KCl 300 mM; kcat/Km = 170 M⁻¹ s⁻¹
Substance = alanine aminopeptidase (Neisseria meningitidis, UniProt Q9JYV4); substrate = N=C(N)NCCC[C@H](N)C(=O)Nc1ccc2c(CC(N)=O)cc(=O)oc2c1; conditions = pH 7.5, 37 °C; kcat/Km = 205000 ± 7000 M⁻¹ s⁻¹
Substance = B9 (cyc1 F96W); substrate = CC(C)=CCC/C(C)=C/CC/C(C)=C/CO[P@@](=O)(O)OP(=O)(O)O; conditions = pH 6.5, 30 °C, added: MgCl2 10 mM; kcat/Km = 1200 ± 400 M⁻¹ s⁻¹
Substance = B10 (ycjS); substrate = CO[C@H]1O[C@H](CO)[C@@H](O)[C@H](O)[C@H]1O; conditions = pH 8, 30 °C, added: NAD+ 2.0 mM; kcat/Km = 103 ± 11 M⁻¹ s⁻¹
Substance = B11 (Cop6); substrate = CC(C)=CCC/C(C)=C/CC/C(C)=C/CO[P@@](=O)(O)OP(=O)(O)O; conditions = pH 8, 30 °C, added: MgCl2 10 mM; kcat/Km = 88000 M⁻¹ s⁻¹
Substance = ddh (Ureibacillus thermosphaericus, UniProt G1UII1); substrate = O=C(O)C(=O)Cc1ccccc1; conditions = pH 9, 30 °C, reductive amination, added: NH4Cl 200 mM, NADPH 0.5 mM; kcat/Km = 59 ± 6 M⁻¹ s⁻¹
Substance = B12 (enzyme); substrate = O=C1[C@@H](O[C@@H]2O[C@H](CO)[C@@H](O)[C@H](O)[C@H]2O)Oc2ccccc2N1O; conditions = pH 7.2, 30 °C; kcat/Km = 1860 M⁻¹ s⁻¹

A few entries again:
Substance = alanine aminopeptidase (Neisseria meningitidis, UniProt Q9JYV4); substrate = N=C(N)NCCC[C@H](N)C(=O)Nc1ccc2c(CC(N)=O)cc(=O)oc2c1; conditions = pH 7.5, 37 °C; kcat/Km = 205000 ± 7000 M⁻¹ s⁻¹
Substance = B10 (ycjS); substrate = CO[C@H]1O[C@H](CO)[C@@H](O)[C@H](O)[C@H]1O; conditions = pH 8, 30 °C, added: NAD+ 2.0 mM; kcat/Km = 103 ± 11 M⁻¹ s⁻¹
